Measured values gathered from unrelated publications.
Numbered parts are unrelated; each lists some results of a single study. Positions count from the first letter of the parent shown.

Set 1 — technique: protein-binding microarray; form: double-stranded DNA, one strand shown; sample: in vitro; tested at: not given; direction: higher = stronger binding; endpoint: E-score
Target: Protein C-ets-1 (ETS1, Homo sapiens, UniProt P14921, residues 1-441, Y397A, full length assumed)
Notes: k-mer, scored over probes, only values ≥0.25
Construct (chain): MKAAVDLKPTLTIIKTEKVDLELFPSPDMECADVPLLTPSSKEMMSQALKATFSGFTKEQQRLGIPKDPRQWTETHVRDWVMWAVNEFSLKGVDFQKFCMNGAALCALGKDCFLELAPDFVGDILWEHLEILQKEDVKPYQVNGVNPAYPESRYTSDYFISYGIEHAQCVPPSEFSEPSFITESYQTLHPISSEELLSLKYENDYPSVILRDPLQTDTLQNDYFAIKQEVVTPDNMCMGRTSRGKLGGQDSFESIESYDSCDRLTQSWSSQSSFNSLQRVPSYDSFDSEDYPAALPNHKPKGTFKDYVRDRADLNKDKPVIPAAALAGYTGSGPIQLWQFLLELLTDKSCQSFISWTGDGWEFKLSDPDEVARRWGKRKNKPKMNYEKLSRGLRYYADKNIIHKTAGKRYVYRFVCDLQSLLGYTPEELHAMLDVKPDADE
CGCAAAAC: 0.293
CGACGTCG: 0.311
ATCTGTAC: 0.262
GCCAAAAC: 0.27
GGGCGGGA: 0.36

Set 2 — target: CCND1, cyclin fold, Cln2 fusion (human); technique: yeast growth competition, sequencing; sample: yeast; notes: weak parent motif; baseline: not given; direction: higher = stronger binding; endpoint: normalised enrichment score
Starting sequence: GMNC docking peptide (human); KNAKRNLSSEFAN
N6W: 0.265
F11S: 0.182
A3T: 0.705

Set 3 — technique: universal PBM; form: double-stranded DNA, one strand shown; sample: in vitro; tested at: not given; direction: higher = stronger binding; endpoint: E-score
Target: Sal-like protein 4, full length isoform B (SALL4, Homo sapiens, UniProt Q9UJQ4-2, residues 1-616)
Notes: 8-mer, flanks averaged, mean of replicates
ATACGGTG: -0.00658
AGGCTGTG: -0.154
ATCCATTA: 0.157
GATTGCCC: 0.0118
CCCTATGA: -0.0092

Single results of other studies
PhoQ, residues 284 288 289 292 302 303 NLCILV — fold induction (PhoP, residues 12 14 15 18 19 VHSCL (Escherichia coli, UniProt P23836); Sort-seq, refers to: YFP reporter; E. coli; PhoQ-PhoP variant library, with: 10 µM Mg2+; baseline: high Mg2+ state, higher = stronger signaling): 4.92

Repeated from above (set 3):
CCCTATGA: -0.0092
ATACGGTG: -0.00658
